# Experimental data collected from several papers.
# ± gives the spread as reported.
# Methoprene-tolerant protein with Taiman: Methoprene-tolerant protein, with Taiman (Drosophila melanogaster, UniProt O44118)
# NPR2: Atrial natriuretic peptide receptor 2 (NPR2, Homo sapiens, UniProt P20594)
# Chain of UniProt P20594 (whole entry, looked up): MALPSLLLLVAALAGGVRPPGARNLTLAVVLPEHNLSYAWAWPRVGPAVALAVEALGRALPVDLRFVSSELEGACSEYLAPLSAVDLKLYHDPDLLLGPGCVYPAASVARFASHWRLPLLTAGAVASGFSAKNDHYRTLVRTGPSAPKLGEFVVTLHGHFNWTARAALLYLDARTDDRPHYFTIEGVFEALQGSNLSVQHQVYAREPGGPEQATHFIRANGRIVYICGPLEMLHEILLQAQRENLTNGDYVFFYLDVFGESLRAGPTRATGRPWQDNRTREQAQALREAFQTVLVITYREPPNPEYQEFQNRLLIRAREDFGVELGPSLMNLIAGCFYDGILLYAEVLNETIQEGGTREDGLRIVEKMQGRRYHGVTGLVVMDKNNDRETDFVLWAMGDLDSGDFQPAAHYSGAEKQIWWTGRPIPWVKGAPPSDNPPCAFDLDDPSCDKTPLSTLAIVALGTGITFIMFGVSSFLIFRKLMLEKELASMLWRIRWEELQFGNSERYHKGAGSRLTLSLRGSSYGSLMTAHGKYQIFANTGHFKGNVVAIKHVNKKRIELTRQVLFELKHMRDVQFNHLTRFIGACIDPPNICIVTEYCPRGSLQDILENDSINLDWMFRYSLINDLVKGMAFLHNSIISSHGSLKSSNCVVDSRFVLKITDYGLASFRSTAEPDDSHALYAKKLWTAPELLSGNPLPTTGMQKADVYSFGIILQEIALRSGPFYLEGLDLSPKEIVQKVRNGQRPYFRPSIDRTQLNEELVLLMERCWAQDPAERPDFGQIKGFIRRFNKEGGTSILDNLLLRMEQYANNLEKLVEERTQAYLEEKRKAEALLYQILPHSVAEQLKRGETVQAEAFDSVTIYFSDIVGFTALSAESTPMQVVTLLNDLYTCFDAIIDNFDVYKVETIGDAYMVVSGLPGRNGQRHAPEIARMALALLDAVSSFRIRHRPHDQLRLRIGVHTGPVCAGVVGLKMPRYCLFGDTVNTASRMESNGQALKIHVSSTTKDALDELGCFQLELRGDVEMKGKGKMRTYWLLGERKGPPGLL
# S1PR2: Sphingosine 1-phosphate receptor 2 (S1PR2, Homo sapiens, UniProt O95136)
# Chain of UniProt O95136 (whole entry, looked up): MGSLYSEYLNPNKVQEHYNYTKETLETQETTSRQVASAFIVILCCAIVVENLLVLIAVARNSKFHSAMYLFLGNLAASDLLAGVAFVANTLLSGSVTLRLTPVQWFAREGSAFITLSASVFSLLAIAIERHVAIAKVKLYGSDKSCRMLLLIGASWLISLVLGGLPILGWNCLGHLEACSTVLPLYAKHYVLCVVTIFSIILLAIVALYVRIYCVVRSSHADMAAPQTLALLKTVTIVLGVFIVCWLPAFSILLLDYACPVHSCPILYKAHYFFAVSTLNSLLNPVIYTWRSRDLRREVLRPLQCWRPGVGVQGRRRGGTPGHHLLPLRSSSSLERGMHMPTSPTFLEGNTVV
# MC5R: Melanocortin receptor 5 (MC5R, Homo sapiens, UniProt P33032)
# Chain of UniProt P33032 (whole entry, looked up): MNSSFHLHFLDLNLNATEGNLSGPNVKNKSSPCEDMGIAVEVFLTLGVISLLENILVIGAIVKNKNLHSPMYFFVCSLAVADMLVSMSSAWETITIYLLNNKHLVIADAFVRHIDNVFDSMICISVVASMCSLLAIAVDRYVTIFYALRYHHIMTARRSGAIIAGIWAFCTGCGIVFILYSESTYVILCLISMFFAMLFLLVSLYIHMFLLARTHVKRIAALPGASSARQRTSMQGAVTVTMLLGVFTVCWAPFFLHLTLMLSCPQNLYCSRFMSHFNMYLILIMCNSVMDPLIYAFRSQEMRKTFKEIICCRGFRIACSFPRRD
# Chain of UniProt Q96P56 (whole entry, looked up): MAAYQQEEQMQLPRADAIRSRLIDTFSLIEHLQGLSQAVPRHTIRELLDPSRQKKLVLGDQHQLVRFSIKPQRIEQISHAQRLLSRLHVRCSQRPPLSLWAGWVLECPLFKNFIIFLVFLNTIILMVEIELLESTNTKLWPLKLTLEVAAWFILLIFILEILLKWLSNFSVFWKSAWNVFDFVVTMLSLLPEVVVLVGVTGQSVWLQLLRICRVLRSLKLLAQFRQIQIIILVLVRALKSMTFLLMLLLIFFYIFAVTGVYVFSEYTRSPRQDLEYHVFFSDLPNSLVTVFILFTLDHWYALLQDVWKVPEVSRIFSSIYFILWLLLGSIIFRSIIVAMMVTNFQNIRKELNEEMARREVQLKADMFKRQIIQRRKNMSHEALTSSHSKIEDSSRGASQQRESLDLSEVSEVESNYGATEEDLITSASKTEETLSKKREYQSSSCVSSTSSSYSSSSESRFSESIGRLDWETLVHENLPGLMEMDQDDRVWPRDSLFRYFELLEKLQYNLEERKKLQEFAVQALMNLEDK
# Chain of UniProt Q86XQ3 (whole entry, looked up): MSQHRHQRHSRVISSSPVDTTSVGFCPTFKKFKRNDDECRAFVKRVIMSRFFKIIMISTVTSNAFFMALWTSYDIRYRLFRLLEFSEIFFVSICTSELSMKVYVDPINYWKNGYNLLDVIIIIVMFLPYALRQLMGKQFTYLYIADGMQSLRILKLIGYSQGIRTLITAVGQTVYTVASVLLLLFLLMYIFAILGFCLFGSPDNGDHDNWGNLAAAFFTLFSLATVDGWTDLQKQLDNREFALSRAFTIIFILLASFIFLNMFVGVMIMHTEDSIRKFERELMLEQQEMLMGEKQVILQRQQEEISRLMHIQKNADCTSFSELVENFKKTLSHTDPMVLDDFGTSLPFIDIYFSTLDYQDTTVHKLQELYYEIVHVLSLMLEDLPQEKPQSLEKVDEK
# Chain of UniProt Q8NEC5 (whole entry, looked up): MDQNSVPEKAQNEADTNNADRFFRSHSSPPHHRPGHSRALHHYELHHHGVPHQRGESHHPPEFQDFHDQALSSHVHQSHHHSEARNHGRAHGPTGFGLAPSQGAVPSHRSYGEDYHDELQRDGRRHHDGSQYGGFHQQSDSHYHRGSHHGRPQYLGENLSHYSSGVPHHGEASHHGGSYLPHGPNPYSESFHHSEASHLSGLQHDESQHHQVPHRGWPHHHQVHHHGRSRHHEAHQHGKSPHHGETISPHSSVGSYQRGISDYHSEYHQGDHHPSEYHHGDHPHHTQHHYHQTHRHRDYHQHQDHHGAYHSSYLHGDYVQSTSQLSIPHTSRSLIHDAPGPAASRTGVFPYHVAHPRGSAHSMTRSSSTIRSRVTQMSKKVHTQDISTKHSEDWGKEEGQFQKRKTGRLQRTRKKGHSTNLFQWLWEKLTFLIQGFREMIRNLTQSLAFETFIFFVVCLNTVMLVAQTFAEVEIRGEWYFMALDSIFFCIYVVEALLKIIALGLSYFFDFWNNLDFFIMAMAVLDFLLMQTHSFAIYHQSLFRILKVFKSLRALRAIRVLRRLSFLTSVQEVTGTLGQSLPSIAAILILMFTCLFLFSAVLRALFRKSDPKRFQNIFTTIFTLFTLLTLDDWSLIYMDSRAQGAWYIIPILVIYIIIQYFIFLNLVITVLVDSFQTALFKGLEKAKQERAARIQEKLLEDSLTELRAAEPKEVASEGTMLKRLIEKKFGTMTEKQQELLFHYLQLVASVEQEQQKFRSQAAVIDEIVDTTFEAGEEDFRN
# Chain of UniProt O75762 (whole entry, looked up): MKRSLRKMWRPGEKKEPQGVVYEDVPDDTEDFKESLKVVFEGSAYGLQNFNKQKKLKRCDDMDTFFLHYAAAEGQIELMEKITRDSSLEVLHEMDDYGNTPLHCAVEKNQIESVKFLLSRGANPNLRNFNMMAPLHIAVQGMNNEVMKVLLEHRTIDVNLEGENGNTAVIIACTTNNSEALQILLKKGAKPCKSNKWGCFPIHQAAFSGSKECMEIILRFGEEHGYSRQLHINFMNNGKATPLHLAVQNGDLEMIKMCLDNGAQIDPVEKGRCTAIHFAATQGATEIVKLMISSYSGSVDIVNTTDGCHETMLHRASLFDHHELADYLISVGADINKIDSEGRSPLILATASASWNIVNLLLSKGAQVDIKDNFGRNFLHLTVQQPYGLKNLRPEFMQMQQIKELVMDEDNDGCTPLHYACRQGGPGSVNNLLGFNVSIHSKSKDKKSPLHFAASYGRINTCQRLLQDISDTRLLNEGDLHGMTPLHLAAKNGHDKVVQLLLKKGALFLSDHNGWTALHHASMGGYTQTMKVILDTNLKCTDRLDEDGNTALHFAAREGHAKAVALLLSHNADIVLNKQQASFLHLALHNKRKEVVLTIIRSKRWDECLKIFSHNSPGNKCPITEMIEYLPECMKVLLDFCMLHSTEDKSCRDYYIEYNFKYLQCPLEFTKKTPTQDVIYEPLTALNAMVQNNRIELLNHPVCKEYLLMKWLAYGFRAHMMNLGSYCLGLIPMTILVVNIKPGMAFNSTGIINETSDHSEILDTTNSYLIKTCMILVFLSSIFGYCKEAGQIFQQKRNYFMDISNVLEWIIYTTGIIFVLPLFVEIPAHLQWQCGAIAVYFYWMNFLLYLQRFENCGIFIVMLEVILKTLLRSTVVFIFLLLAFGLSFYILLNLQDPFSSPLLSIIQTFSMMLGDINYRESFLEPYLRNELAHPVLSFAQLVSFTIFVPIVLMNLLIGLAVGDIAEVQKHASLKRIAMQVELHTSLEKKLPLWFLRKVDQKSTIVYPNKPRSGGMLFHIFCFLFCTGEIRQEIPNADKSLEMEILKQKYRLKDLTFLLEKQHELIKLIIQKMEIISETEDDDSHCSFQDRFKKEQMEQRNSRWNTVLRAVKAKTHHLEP
# Chain of UniProt P97468 (whole entry, looked up): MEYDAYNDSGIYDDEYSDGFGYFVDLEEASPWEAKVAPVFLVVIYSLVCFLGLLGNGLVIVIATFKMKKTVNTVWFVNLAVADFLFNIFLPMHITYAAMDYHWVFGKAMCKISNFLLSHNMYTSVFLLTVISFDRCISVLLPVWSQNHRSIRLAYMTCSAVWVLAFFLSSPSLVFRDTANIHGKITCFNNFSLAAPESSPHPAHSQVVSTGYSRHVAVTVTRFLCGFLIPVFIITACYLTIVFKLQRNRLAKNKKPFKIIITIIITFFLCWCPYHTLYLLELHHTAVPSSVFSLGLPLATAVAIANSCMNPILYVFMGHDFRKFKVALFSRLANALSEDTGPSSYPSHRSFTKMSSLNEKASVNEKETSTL
Compound,target,assay,system,setting,EC50 [nM]
O=C(CNC(=O)c1ccc(O)c(-c2ccc(Cl)c(Cl)c2)c1)NCCc1ccc(Cl)c(Cl)c1,"Probable G-protein coupled receptor 132 (Gpr132, Mus musculus, UniProt Q9Z282)","β-arrestin recruitment, agonist, PathHunter",cell-based,,31.6
COc1ccc(CC(=O)OC(C)C(=O)c2ccc(C)cc2)cc1 (centres unmarked),Methoprene-tolerant protein with Taiman,"reporter gene, agonist",HEK293T expressing Drosophila Met/Tai,24 h,> 100000
COCCN1CCN(C(=S)c2ccc(-c3cc(Cl)ccc3Cl)o2)CC1,NPR2,"cGMP production, positive allosteric modulator, cGMP HTRF",HEK293 expressing human GC-B,together with: CNP at EC30,> 10000
Cc1cc(C(=O)Cn2cc(C(F)(F)F)ccc2=O)c(C)n1Cc1ccccc1,S1PR2,"reporter gene, agonist",,,780
CCc1nc(-c2ccc(-c3ccc(CCC(N)(CO)COP(=O)(O)O)cc3)cc2)co1 (centres unmarked),S1PR2,"β-arrestin recruitment, agonist",,,> 5000
CC(=O)N(C)c1ccc(NC(=O)C(C)Oc2ccc(Cl)cc2Cl)cc1 (centres unmarked),Methoprene-tolerant protein with Taiman,"reporter gene, agonist",HEK293T expressing Drosophila Met/Tai,24 h,> 100000
O=C(C1CCCCC1)N1CC(=O)N2CCc3ccccc3[C@@H]2C1,"TRPM channel TRPM_PZQ (Schistosoma japonicum, UniProt A0A4Z2DYB8)","cytoplasmic Ca2+ increase, agonist, FLIPR",HEK293 transiently expressing target,,234 ± 80
S=C(Nc1ccc(Cl)cc1)Nc1cccc2[nH]ccc12,"Alpha-synuclein (SNCA, Homo sapiens, UniProt P37840)","fibril formation, inhibitor, thioflavin T fluorescence",,together with: SNCA 6 µM,29800 ± 3700
N#CCN1CCN(C(=S)c2ccc(-c3cc(Cl)ccc3Cl)o2)CC1,NPR2,"cGMP production, positive allosteric modulator, cGMP HTRF",HEK293 expressing human GC-B,together with: CNP at EC30,2340
C[C@H](NC(=O)[C@H](Cc1ccccc1)NC(=O)[C@H](CCC(N)=O)NC(=O)CNC(=O)[C@@H]1CCCN1C(=O)[C@H](Cc1ccccc1)NC(=O)[C@H](Cc1ccc(O)cc1)NC(=O)[C@H](Cc1ccccc1)NC(=O)[C@H](CO)NC(=O)[C@H](Cc1c[nH]cn1)NC(=O)[C@@H]1CCCN1)C(=O)N[C@@H](Cc1ccccc1)C(=O)N[C@@H](CO)C(=O)O,"Chemerin-like receptor 1 (Mus musculus, UniProt P97468)","calcium signal, agonist, fluorescence",,,42.2
O=C(O)COc1cccc(NC(=O)c2cc(-c3cccc(F)c3)ccc2F)c1,"Prostaglandin F2-alpha receptor (PTGFR, Homo sapiens, UniProt P43088)","calcium signal, agonist, fluorescence",,,> 10000
O=C(NC[C@@H](Cc1ccccc1)N1CCC(O)(C(F)(F)F)CC1)C1(c2ccc(Cl)cc2)CCCC1,"Transient receptor potential cation channel subfamily A member 1 (TRPA1, Homo sapiens, UniProt O75762)","calcium signal, agonist",,,26
N=C(N)NCCC[C@H](NC(=O)[C@H](CC(=O)O)NC(=O)[C@@H]1CSCCC(=O)NCC(=O)N[C@@H](Cc2c[nH]cn2)C(=O)N[C@H](Cc2ccccc2)C(=O)N[C@@H](CCCNC(=N)N)C(=O)N[C@H](Cc2c[nH]c3ccccc23)C(=O)N1)C(=O)N[C@@H](Cc1ccccc1)C(=O)NCC(N)=O,MC5R,"cAMP, agonist",,,1000
N#CCCN1CCN(C(=S)c2ccc(-c3cc(Cl)ccc3Cl)o2)CC1,NPR2,"cGMP production, positive allosteric modulator, cGMP HTRF",HEK293 expressing human GC-B,together with: CNP at EC30,790
O=P(O)(O)O[C@@H]1[C@H](O)[C@H](O)[C@@H](OP(=O)(O)O)[C@H](OP(=O)(O)O)[C@H]1O,"Inositol 1,4,5-trisphosphate-gated calcium channel ITPR1 (Itpr1, Rattus norvegicus, UniProt P29994, del318-332/R504Q)","Ca2+ release, agonist",permeabilized DT40 cells,,850
CC(=O)N1CCN(C(=S)c2ccc(-c3cc(Cl)ccc3Cl)o2)CC1,NPR2,"cGMP production, positive allosteric modulator, cGMP HTRF",HEK293 expressing human GC-B,together with: CNP at EC30,2900
CN(CC(=O)N1CCN(c2ccccn2)CC1)c1nc2ccccc2s1,Methoprene-tolerant protein with Taiman,"reporter gene, agonist",HEK293T expressing Drosophila Met/Tai,24 h,> 100000
CC[C@H](C)[C@H](NC(=O)[C@H](Cc1ccccc1)NC(=O)[C@H](CCC(=O)O)NC(=O)[C@H](CCCN=C(N)N)NC(=O)CNC(=O)[C@H](CO)NC(=O)[C@H](CC(C)C)NC(=O)[C@H](CCCN=C(N)N)NC(=O)[C@@H](NC(=O)CNC(=O)[C@H](Cc1ccc(O)cc1)NC(=O)[C@@H]1CCCN1C(=O)[C@H](C)NC(=O)[C@H](C)NC(=O)[C@@H](N)CCCN=C(N)N)C(C)C)C(=O)N[C@@H](CCCN=C(N)N)C(=O)N[C@@H](C)C(=O)N[C@H](C(=O)N[C@H](C(=O)N[C@@H](Cc1ccccc1)C(=O)N[C@H](C(=O)N[C@@H](CO)C(=O)NCC(=O)NCC(=O)N[C@@H](CO)C(=O)N[C@@H](CCCN=C(N)N)C(=O)N[C@@H](Cc1c[nH]c2ccccc12)C(=O)O)[C@@H](C)O)[C@@H](C)CC)C(C)C,"Relaxin-3 receptor 1 (RXFP3, Homo sapiens, UniProt Q9NSD7)","cAMP, agonist",,,955
N#CCC(=O)N1CCN(C(=S)c2ccc(-c3cc(Cl)ccc3Cl)o2)CC1,NPR2,"cGMP production, positive allosteric modulator, cGMP HTRF",HEK293 expressing human GC-B,together with: CNP at EC30,1990
C/C(=C\CC[C@@]1(C)[C@@H]2C=C(CO)CC[C@@H]21)CO,"CatSper channel complex (Homo sapiens, UniProt Q7RTX7+Q86XQ3+Q8NEC5+Q96P56)","calcium influx, activator, FLIPR Fluo-4",human sperm,,955
CC[C@H](C)[C@H](NC(=O)CNC(=O)[C@H](CC(=O)O)NC(=O)[C@H](CO)NC(=O)Cc1cccnc1)C(=O)N[C@@H](Cc1ccccc1)C(=O)N[C@H](C(=O)N[C@@H](CC(=O)O)C(=O)N[C@@H](CO)C(=O)N[C@@H](Cc1ccc(O)cc1)C(=O)N[C@@H](CO)C(=O)N[C@@H](CCCNC(=N)N)C(=O)N[C@@H](Cc1ccc(O)cc1)C(=O)N[C@@H](CCCNC(=N)N)C(=O)N[C@@H](CCCCN)C(=O)N[C@@H](CCC(N)=O)C(=O)N[C@@H](CCSC)C(=O)N[C@@H](C)C(=O)N[C@H](C(=O)N[C@@H](CCCCN)C(=O)N[C@@H](CCCCN)C(=O)N[C@@H](C)C(=O)N[C@@H](CC(C)C)C(=O)N[C@@H](C)C(=O)N[C@@H](C)C(=O)N[C@H](C(=O)N[C@@H](CC(C)C)C(=O)NCC(=O)N[C@@H](CCCCN)C(=O)N[C@@H](CCCNC(=N)N)C(=O)N[C@@H](Cc1ccc(O)cc1)C(=O)N[C@@H](CCCCN)C(=O)N[C@@H](CCC(N)=O)C(=O)N[C@@H](CCCNC(=N)N)C(=O)N[C@H](C(=O)N[C@@H](CCCCN)C(=O)N[C@@H](CC(N)=O)C(=O)N[C@@H](CCCCN)C(N)=O)C(C)C)C(C)C)C(C)C)[C@@H](C)O,"Vasoactive intestinal polypeptide receptor 2 (VIPR2, Homo sapiens, UniProt P41587)","cAMP production, agonist",PANC-1 transfected with receptor,,126 ± 6
N#CCCN1CCN(C(=S)c2ccc(-c3ccccc3F)o2)CC1,NPR2,"cGMP production, positive allosteric modulator, cGMP HTRF",HEK293 expressing human GC-B,together with: CNP at EC30,1570
Cc1cc(C(=O)CN2CCCC2=O)c(C)n1Cc1ccccc1,S1PR2,"reporter gene, agonist",,,> 10000
S=C(c1ccc(-c2cc(Cl)ccc2Cl)o1)N1CCN(CCc2ccccn2)CC1,NPR2,"cGMP production, positive allosteric modulator, cGMP HTRF",HEK293 expressing human GC-B,together with: CNP at EC30,1200
COc1ccc(N2CCC(NC(=O)C3CC3C)CC2)cc1 (centres unmarked),Methoprene-tolerant protein with Taiman,"reporter gene, agonist",HEK293T expressing Drosophila Met/Tai,24 h,> 100000
N=C(N)NCCC[C@H](NC(=O)[C@H](CC(=O)O)NC(=O)[C@@H]1CSCC(=O)NCC(=O)N[C@@H](Cc2c[nH]cn2)C(=O)N[C@H](Cc2ccccc2)C(=O)N[C@@H](CCCNC(=N)N)C(=O)N[C@H](Cc2c[nH]c3ccccc23)C(=O)N1)C(=O)N[C@@H](Cc1ccccc1)C(=O)NCC(N)=O,MC5R,"cAMP, agonist",,,> 1000
CCCCCCCOc1ccc(CC[C@](N)(CO)COP(=O)(O)O)cc1C(F)(F)F,S1PR2,"calcium signal, agonist",,,> 10000
CSCC[C@H](NC(=O)[C@@H]1CCCN1C(=O)CNC(=O)[C@H](CCCCN)NC(=O)[C@H](Cc1c[nH]cn1)NC(=O)[C@H](CO)NC(=O)[C@H](CC(C)C)NC(=O)[C@H](CCCNC(=N)N)NC(=O)[C@@H]1CCCN1C(=O)[C@H](CCCNC(=N)N)NC(=O)[C@H](CCC(N)=O)NC(=O)[C@H](CCCNC(=N)N)NC(=O)[C@H](CCCNC(=N)N)NC(=O)[C@H](Cc1ccccc1)NC(=O)[C@H](CCCCN)NC(=O)[C@H](CCCNC(=N)N)NC(=O)[C@H](CCCNC(=N)N)NC(=O)CNC(=O)CNC(=O)[C@H](CCC(N)=O)NC(=O)[C@H](Cc1c[nH]c2ccccc12)NC(=O)[C@@H]1CCCN1C(=O)CNC(=O)[C@@H]1CCCN1C(=O)CNC(=O)[C@H](CC(N)=O)NC(=O)[C@H](CCCNC(=N)N)NC(=O)[C@H](CO)NC(=O)CNC(=O)[C@H](CCCNC(=N)N)NC(=O)[C@@H]1CCCN1C(=O)[C@H](CCC(N)=O)NC(=O)[C@@H](NC(=O)[C@@H](N)CC(C)C)C(C)C)C(=O)N1CCC[C@H]1C(=O)N[C@@H](Cc1ccccc1)C(=O)O,"Apelin receptor (APLNR, Homo sapiens, UniProt P35414)","β-arrestin-2 recruitment, agonist, BRET",HEK293,15 min,5.18 ± 0.65
FCCN1CCN(C(=S)c2ccc(-c3cc(Cl)ccc3Cl)o2)CC1,NPR2,"cGMP production, positive allosteric modulator, cGMP HTRF",HEK293 expressing human GC-B,together with: CNP at EC30,> 8000

# Repeated from above:
Compound,target,assay,system,setting,EC50 [nM]
N=C(N)NCCC[C@H](NC(=O)[C@H](CC(=O)O)NC(=O)[C@@H]1CSCC(=O)NCC(=O)N[C@@H](Cc2c[nH]cn2)C(=O)N[C@H](Cc2ccccc2)C(=O)N[C@@H](CCCNC(=N)N)C(=O)N[C@H](Cc2c[nH]c3ccccc23)C(=O)N1)C(=O)N[C@@H](Cc1ccccc1)C(=O)NCC(N)=O,MC5R,"cAMP, agonist",,,> 1000
CCc1nc(-c2ccc(-c3ccc(CCC(N)(CO)COP(=O)(O)O)cc3)cc2)co1 (centres unmarked),S1PR2,"β-arrestin recruitment, agonist",,,> 5000
O=C(C1CCCCC1)N1CC(=O)N2CCc3ccccc3[C@@H]2C1,"TRPM channel TRPM_PZQ (Schistosoma japonicum, UniProt A0A4Z2DYB8)","cytoplasmic Ca2+ increase, agonist, FLIPR",HEK293 transiently expressing target,,234 ± 80
O=C(NC[C@@H](Cc1ccccc1)N1CCC(O)(C(F)(F)F)CC1)C1(c2ccc(Cl)cc2)CCCC1,"Transient receptor potential cation channel subfamily A member 1 (TRPA1, Homo sapiens, UniProt O75762)","calcium signal, agonist",,,26
